Results gathered from unrelated publications.
Each numbered part is a random draw from the data of one study; scales do not carry over between parts. Values joined by “and” are separate records of one study, mostly repeats; a detail may differ.

Set 1
Target: E3 ubiquitin-protein ligase NEDD4, HECT domain (Homo sapiens, UniProt P46934)
Chain of UniProt P46934 (whole entry, looked up): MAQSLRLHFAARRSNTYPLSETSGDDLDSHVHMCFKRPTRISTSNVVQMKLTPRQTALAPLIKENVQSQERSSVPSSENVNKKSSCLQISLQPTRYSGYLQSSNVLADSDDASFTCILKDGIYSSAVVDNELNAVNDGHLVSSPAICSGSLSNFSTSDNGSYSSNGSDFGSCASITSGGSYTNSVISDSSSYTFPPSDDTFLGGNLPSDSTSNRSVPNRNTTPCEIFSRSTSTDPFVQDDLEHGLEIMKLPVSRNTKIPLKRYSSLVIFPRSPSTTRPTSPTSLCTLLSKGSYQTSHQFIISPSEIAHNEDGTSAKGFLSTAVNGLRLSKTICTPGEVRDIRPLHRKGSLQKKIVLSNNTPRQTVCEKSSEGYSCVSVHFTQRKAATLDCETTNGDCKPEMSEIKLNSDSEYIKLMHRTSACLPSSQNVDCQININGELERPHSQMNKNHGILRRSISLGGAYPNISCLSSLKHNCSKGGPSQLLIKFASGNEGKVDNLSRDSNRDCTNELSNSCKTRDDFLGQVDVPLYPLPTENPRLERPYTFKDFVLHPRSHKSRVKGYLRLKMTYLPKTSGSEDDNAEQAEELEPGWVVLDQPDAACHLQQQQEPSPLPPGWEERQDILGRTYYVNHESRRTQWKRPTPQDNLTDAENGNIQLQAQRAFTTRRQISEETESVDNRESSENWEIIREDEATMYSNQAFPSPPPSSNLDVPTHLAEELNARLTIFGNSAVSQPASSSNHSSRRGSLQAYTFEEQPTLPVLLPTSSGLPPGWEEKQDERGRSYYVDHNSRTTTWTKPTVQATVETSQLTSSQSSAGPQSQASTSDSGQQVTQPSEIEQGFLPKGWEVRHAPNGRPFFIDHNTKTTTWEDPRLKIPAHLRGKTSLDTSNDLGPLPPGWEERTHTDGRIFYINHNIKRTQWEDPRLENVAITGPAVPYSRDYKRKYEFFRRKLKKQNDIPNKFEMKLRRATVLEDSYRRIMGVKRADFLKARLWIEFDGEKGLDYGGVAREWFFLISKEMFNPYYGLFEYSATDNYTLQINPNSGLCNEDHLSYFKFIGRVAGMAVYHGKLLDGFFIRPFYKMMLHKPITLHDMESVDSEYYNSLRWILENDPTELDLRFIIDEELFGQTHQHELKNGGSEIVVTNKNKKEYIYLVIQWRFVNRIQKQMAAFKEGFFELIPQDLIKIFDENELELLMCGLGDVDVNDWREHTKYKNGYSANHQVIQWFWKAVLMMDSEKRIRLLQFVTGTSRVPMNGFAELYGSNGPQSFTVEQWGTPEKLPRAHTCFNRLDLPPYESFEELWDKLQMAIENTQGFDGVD
Read-out: enzyme activity
Mode: inhibitor
Method: Ub-TR-FRET
Matrix: HECT domain
Tested at: 3.704 µM
Direction: higher = more chain formation
Endpoint: ubiquitin chain formation AUC
CNCCCN1c2ccccc2CCc2ccc(Cl)cc21: 139000 a.u. and 140000 a.u. and 142000 a.u.
CCOC(=O)/C=C/CNCCCCN1c2cc(Cl)ccc2CCc2cnn(C)c21.O=C(O)/C=C\C(=O)O: 8070 a.u. and 16000 a.u. and 7530 a.u. and 7700 a.u.
COC(=O)CCCNCCCN1c2ccccc2CCc2ccc(Cl)cc21.COC(=O)CCCNCCCN1c2ccccc2CCc2ccc(Cl)cc21.O=C(O)/C=C/C(=O)O: 124000 a.u. and 125000 a.u.
CC(C)ONC(=O)/C=C/CNCCCCN1c2ccccc2CCc2ccc(Cl)cc21.O=C(O)/C=C\C(=O)O: 7180 a.u. and 10100 a.u. and 7070 a.u. and 9030 a.u. and 6810 a.u. and 9490 a.u.
CCOC(=O)/C=C/CNCCCCN1c2ccccc2COc2ccc(Cl)cc21.O=C(O)/C=C\C(=O)O: 10900 a.u. and 11900 a.u. and 11200 a.u.
CCONC(=O)/C=C/CNCCCCN1c2ccccc2CCc2ccc(Cl)cc21.O=C(O)/C=C\C(=O)O: 4530 a.u. and 5340 a.u. and 5470 a.u. and 5380 a.u. and 4880 a.u. and 4570 a.u.
CCOC(=O)/C=C/CNCCCCN1c2ccccc2C(=O)N(C)c2ccc(Cl)cc21.O=C(O)/C=C\C(=O)O: 32000 a.u. and 40500 a.u. and 42800 a.u.
CCOC(=O)/C=C/CN(CC)CCCCN1c2ccccc2CCc2ccc(Cl)cc21.O=C(O)/C=C\C(=O)O: 27700 a.u. and 37300 a.u. and 27900 a.u. and 44500 a.u. and 40200 a.u. and 29500 a.u.

Set 2
Target: Sodium-dependent neutral amino acid transporter B(0)AT1 (SLC6A19, Homo sapiens, UniProt Q695T7)
Chain of UniProt Q695T7 (whole entry, looked up): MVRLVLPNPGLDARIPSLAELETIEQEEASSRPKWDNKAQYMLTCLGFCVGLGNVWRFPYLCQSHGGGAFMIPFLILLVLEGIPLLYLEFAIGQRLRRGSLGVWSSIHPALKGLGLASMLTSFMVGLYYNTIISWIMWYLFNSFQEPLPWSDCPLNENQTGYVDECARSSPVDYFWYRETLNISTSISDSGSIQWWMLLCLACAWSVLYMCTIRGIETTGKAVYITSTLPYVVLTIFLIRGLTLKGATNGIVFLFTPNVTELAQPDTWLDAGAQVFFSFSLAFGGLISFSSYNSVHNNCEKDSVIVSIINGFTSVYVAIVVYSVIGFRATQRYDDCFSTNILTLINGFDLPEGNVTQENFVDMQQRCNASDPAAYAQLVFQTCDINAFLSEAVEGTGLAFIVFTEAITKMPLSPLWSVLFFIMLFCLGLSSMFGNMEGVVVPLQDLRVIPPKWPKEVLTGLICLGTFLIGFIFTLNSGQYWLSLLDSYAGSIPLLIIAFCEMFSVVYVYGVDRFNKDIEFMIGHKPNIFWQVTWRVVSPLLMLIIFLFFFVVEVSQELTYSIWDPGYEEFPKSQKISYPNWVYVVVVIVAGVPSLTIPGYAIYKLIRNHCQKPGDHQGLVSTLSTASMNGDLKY
Read-out: membrane potential
Method: FLIPR membrane potential
Cell line: CHO-BC cells
Tested at: concentration not given
Notes: first screen
Reference: uninhibited control
Endpoint: normalised transport activity
Cc1cc(OCC(=O)Nc2ccccc2)cc(C)c1Cl: 1.14 and 1.07 and 0.982 and 0.991
Cc1cc(OCC(=O)OC(C)C)cc(C)c1Cl: 0.928 and 1.08 and 0.911 and 1.01
CNC(=O)COc1cc(C)c(Cl)c(C)c1: 0.592 and 0.639 and 0.647 and 0.685 and 0.651
CC(C)NC(=O)COc1ccc(Br)cc1: 0.434 and 0.603 and 0.494 and 0.562
CCCCNC(=O)COc1cc(C)c(Cl)c(C)c1: 1 and 1.14 and 1.03 and 0.965 and 1.05
Cc1cc(Cl)ccc1OCC(=O)NC(C)C: 0.78 and 0.952 and 0.919 and 0.832 and 0.889
CC(C)NC(=O)COc1ccc(Cl)cc1: 0.644 and 0.73 and 0.553 and 0.679 and 0.648
Cc1cc(OC(C)(C)C(=O)NC(C)C)cc(C)c1Cl: 0.998 and 1.19 and 1.17 and 1.08 and 0.918

Other studies, line by line
Cc1nc(C)c(C=[N+]([O-])C(C)(C)C)nc1C
stride length (footprint test; MPTP-induced Parkinson's disease mouse model; 30 mg/kg): 6.28 cm and 6.84 cm and 5.52 cm and 6.65 cm and 5.43 cm and 6.14 cm and 6.29 cm and 6.54 cm

Cn1cc(-c2cccc(CN3CCC4(CC3)COc3c4ccc4c3CN([C@H]3CCC(=O)NC3=O)C4=O)c2)cn1
time to tumour volume 2000 mm3 (Crbn I391V mouse, MC-38 tumour; oral, daily, 30 mg/kg, animals reaching endpoint, together with: anti-LAG3 antibody 10 mg/kg i.p. weekly): 32 days and 26 days

C=CCN1C(=O)C(O)(C(=O)O)Oc2cc(F)ccc21 (centres unmarked)
inhibition (Arabidopsis thaliana; hypocotyl length; Col-0, seedlings; 3.125 µg/mL): 0.43%

CC(C)NC(=O)N1CCC(NC2=Nc3cc(F)ccc3N(CC(F)F)c3ccc(Cl)cc32)C1 (stereo in doubt)
viability (sample C colorectal tumour organoid; 0.1 µM; reference: DMSO): 95.8%

Repeated from above (set 2):
CNC(=O)COc1cc(C)c(Cl)c(C)c1: 0.592 and 0.639 and 0.647 and 0.685 and 0.651
Cc1cc(Cl)ccc1OCC(=O)NC(C)C: 0.78 and 0.952 and 0.919 and 0.832 and 0.889
CC(C)NC(=O)COc1ccc(Br)cc1: 0.434 and 0.603 and 0.494 and 0.562
